Assay results gathered from unrelated publications.
Parts stem from different laboratories: compare values within a part only. Several values in a cell are separate wells, animals, samples, runs or records.
Sequence of UniProt Q14164 (whole entry, looked up): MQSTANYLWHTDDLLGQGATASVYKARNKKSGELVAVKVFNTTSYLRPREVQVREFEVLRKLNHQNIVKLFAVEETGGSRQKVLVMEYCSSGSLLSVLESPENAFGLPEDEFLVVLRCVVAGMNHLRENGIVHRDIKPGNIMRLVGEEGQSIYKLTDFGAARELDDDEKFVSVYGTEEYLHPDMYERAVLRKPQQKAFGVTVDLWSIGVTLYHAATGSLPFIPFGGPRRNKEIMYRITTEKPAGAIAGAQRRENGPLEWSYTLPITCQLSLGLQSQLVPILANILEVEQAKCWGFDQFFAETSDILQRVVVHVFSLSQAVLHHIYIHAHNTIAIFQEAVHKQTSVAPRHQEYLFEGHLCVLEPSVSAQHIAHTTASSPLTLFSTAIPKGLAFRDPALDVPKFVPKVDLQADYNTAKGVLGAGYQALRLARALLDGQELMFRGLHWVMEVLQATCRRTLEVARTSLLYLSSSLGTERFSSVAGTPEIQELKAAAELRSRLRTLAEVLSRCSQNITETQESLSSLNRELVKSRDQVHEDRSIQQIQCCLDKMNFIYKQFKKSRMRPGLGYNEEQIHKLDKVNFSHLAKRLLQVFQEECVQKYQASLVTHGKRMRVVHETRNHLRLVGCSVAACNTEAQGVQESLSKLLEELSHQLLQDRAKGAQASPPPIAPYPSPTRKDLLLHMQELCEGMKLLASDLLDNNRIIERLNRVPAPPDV
Sequence of UniProt Q9UF33 (whole entry, looked up): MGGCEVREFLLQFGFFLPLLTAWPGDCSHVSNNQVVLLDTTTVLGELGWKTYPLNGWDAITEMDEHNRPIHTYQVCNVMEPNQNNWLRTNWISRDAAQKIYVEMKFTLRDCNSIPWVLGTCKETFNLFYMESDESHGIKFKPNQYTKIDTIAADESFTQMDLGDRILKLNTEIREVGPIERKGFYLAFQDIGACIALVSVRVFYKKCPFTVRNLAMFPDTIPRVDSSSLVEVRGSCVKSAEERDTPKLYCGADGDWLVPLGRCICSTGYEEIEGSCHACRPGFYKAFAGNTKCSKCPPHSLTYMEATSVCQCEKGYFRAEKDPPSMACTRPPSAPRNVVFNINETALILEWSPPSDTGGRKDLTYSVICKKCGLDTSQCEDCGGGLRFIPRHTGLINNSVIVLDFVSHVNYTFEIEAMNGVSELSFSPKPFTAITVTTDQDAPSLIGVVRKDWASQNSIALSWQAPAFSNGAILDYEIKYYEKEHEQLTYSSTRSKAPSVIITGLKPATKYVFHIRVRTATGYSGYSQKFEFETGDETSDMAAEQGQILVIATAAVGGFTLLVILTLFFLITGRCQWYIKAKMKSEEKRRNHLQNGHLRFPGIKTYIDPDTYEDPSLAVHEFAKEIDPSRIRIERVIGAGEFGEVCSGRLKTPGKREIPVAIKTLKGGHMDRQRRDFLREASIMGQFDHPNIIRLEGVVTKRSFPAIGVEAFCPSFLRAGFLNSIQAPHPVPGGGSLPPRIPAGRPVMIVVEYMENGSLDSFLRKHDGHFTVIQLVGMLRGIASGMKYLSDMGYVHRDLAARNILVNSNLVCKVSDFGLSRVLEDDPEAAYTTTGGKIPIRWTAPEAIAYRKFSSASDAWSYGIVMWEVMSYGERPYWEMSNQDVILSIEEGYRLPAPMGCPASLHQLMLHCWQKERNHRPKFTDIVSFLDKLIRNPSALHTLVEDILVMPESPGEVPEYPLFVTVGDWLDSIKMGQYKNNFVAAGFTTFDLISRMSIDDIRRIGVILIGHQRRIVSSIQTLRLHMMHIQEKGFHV
Sequence of UniProt P35626 (whole entry, looked up): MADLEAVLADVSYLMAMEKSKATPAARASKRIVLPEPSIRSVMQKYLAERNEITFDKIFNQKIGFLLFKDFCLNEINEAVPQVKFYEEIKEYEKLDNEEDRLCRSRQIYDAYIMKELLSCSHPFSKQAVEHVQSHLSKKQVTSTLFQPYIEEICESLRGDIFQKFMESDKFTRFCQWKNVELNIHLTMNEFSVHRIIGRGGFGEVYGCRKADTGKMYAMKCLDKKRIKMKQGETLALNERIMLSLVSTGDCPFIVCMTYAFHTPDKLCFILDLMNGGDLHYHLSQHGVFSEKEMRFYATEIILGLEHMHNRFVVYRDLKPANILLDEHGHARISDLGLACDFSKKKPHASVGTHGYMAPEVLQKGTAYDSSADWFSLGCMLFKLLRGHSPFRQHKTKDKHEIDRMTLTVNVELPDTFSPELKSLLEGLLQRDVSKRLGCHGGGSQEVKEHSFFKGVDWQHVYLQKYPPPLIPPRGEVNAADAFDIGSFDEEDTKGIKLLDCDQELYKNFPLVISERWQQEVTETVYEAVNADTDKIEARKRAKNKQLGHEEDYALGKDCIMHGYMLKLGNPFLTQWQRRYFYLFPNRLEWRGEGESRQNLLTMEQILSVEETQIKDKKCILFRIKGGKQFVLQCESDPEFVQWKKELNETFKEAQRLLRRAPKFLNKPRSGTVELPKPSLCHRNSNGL
Sequence of UniProt P80192 (whole entry, looked up): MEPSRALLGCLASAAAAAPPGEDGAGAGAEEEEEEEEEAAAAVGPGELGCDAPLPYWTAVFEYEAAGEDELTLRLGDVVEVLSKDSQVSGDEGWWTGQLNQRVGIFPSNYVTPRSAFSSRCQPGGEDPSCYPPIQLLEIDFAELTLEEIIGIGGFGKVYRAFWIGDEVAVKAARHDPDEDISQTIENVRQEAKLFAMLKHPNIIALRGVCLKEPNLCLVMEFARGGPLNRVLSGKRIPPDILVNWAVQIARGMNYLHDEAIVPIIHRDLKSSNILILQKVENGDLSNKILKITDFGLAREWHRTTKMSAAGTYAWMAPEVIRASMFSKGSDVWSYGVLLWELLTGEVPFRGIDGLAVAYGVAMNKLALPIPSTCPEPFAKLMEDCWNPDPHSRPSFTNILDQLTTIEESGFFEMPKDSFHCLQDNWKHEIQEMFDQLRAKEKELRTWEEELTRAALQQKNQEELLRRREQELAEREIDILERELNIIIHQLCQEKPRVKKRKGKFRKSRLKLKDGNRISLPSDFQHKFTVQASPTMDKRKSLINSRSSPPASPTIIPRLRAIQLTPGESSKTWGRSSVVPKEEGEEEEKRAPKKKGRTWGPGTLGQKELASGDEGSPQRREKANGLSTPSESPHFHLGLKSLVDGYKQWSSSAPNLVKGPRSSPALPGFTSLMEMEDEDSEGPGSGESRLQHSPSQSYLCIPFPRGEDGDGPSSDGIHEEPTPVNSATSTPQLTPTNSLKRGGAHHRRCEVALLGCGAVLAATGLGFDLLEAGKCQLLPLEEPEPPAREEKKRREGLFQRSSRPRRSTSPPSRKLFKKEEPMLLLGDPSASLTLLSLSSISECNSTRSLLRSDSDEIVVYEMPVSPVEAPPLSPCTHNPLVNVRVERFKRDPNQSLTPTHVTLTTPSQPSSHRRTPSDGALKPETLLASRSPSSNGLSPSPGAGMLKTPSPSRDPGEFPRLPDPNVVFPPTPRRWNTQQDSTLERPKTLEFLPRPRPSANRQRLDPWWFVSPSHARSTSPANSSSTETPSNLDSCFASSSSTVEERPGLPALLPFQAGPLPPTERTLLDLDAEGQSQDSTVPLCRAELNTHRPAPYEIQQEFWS
Sequence of UniProt P05771 (whole entry, looked up): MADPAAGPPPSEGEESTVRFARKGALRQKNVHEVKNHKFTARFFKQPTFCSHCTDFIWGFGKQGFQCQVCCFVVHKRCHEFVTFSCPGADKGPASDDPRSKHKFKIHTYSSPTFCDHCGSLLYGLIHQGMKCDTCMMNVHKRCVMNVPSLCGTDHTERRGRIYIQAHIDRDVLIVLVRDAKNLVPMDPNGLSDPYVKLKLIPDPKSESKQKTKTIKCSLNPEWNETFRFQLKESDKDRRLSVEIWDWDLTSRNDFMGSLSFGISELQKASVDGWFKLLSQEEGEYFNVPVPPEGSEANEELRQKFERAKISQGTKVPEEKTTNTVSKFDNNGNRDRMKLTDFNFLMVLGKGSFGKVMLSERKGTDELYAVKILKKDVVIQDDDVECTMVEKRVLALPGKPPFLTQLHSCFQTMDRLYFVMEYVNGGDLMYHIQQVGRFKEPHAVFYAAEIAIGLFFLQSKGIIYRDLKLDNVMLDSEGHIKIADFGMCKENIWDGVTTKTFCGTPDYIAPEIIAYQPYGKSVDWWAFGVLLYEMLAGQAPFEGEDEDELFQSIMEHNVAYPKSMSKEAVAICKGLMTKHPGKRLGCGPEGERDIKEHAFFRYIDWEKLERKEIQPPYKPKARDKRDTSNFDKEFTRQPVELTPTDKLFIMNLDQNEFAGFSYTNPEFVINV
Sequence of UniProt Q12852 (whole entry, looked up): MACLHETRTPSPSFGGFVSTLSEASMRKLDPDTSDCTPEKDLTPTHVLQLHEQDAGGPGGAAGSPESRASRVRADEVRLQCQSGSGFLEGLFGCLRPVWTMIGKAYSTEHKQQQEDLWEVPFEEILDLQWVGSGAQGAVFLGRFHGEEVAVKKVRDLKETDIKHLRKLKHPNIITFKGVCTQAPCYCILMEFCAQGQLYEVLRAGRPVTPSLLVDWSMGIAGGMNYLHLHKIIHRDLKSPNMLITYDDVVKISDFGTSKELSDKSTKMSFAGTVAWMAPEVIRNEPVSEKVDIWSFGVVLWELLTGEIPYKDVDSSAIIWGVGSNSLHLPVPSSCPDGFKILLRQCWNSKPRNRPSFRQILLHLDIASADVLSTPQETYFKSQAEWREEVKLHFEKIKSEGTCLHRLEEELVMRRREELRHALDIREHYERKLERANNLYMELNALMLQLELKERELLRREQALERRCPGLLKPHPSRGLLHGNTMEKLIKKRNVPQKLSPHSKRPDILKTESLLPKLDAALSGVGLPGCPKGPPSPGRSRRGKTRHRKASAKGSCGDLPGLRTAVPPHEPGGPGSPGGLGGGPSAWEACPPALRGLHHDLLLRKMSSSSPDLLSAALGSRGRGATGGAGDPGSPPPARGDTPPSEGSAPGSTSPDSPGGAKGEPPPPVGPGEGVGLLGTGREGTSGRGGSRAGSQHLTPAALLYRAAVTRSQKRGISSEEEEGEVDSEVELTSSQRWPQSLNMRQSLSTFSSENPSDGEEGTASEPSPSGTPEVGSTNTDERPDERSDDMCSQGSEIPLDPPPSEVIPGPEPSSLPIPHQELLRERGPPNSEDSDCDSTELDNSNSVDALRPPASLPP

Sample 1 — read-out: cell-free assay; technique: competition with immobilised ligand; concentration: 1 µM; measurement: remaining binding
SMILES: CC(=O)c1c(NS(C)(=O)=O)c2cc(-c3ccc(Cl)cc3)c(-c3ccc(Cl)cc3Cl)nc2n(C)c1=O
TRPM6 (Homo sapiens, UniProt Q9BX84): 100%
SIK3 (Homo sapiens, UniProt Q9Y2K2): 100%
MAP2K3 (Homo sapiens, UniProt P46734): 96%
ACVR1 (Homo sapiens, UniProt Q04771): 93%
WNK1 (Homo sapiens, UniProt Q9H4A3): 88%
NEK9 (Homo sapiens, UniProt Q8TD19): 100%
EPHA6 (Homo sapiens, UniProt Q9UF33): 93%
FGFR3 (Homo sapiens, UniProt P22607, G697C): 100%
MAPK15 (Homo sapiens, UniProt Q8TD08): 100%
CSK (Homo sapiens, UniProt P41240): 100%
CDKL2 (Homo sapiens, UniProt Q92772): 99%
PIK3CG (Homo sapiens, UniProt P48736): 82%
MAP3K9 (Homo sapiens, UniProt P80192): 100%
MAP3K12 (Homo sapiens, UniProt Q12852): 100%
RET (Homo sapiens, UniProt P07949, V804L): 100%
Tyrosine-protein kinase JAK2, JH1 (JAK2, Homo sapiens, UniProt O60674): 97%
PRKCI (Homo sapiens, UniProt P41743): 100%

Sample 2 — Compound: Cc1ccc(NC2=CC(=O)c3sc(C)nc3C2=O)cc1; read-out: enzyme activity; action: inhibitor; concentration: 0.5 µM; baseline: control; measurement: remaining activity
PRKACA (Homo sapiens, UniProt P17612): 95.9%
TGFBR2 (Homo sapiens, UniProt P37173): 77.6%
NEK2 (Homo sapiens, UniProt P51955): 96.4%
Tyrosine-protein kinase Lyn, isoform B (LYN, Homo sapiens, UniProt P07948): 95.4%
Cyclin-dependent kinase 5, with p25 (CDK5, Homo sapiens, UniProt Q00535): 61.9%
STK11 (Homo sapiens, UniProt Q15831): 85.6%
IKBKE (Homo sapiens, UniProt Q14164): 102%
CHEK2 (Homo sapiens, UniProt O96017): 100%
cGMP-dependent protein kinase 1, isoform beta (PRKG1, Homo sapiens, UniProt Q13976): 96.3%
PRKCA (Homo sapiens, UniProt P17252): 100%
MAPK9 (Homo sapiens, UniProt P45984): 96.5%
IKBKB (Homo sapiens, UniProt O14920): 97.3%
STK10 (Homo sapiens, UniProt O94804): 95%
CAMKK2 (Homo sapiens, UniProt Q96RR4): 92.5%
Cyclin-dependent kinase 4, with cyclin D1 (CDK4, Homo sapiens, UniProt P11802): 92%
Protein kinase C beta type, isoform beta-I (PRKCB, Homo sapiens, UniProt P05771): 95.7%
GRK3 (Homo sapiens, UniProt P35626): 84.5%
DAPK2 (Homo sapiens, UniProt Q9UIK4): 91.9%
CAMK2D (Homo sapiens, UniProt Q13557): 93.2%
DAPK1 (Homo sapiens, UniProt P53355): 105%
MAP3K3 (Homo sapiens, UniProt Q99759): 120%
OXSR1 (Homo sapiens, UniProt O95747): 86.6%
STK39 (Homo sapiens, UniProt Q9UEW8): 93.4%
TGFBR1 (Homo sapiens, UniProt P36897): 94.8%

Sample 3 — action: inhibitor; concentration: 10 µM; baseline: control; measurement: remaining activity
Target: Diamine acetyltransferase 1 (Homo sapiens, UniProt P21673)
Target sequence (P21673 1-171): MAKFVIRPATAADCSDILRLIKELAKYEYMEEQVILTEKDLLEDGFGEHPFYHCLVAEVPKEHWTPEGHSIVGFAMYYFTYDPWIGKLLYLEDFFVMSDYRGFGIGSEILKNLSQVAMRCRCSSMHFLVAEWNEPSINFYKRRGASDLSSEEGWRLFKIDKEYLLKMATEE
O=C1/C(=C/c2ccc(O)c(O)c2)Oc2cc(O)ccc21: 105%
Cc1ncc(CO)c(CO)c1O: 101%
CC(C)=C[C@H]1C[C@](C)(O)[C@@H]2[C@H]3CC[C@@H]4[C@@]5(C)CC[C@H](O[C@@H]6OC[C@H](O)[C@H](O[C@@H]7O[C@H](CO[C@@H]8O[C@H](CO)[C@@H](O)[C@H](O)[C@H]8O)[C@@H](O)[C@H](O)[C@H]7O[C@@H]7OC[C@@H](O)[C@H](O)[C@H]7O)[C@H]6O[C@@H]6O[C@@H](C)[C@H](O)[C@@H](O)[C@H]6O)C(C)(C)[C@@H]5CC[C@@]4(C)[C@@]34CO[C@@]2(C4)O1: 84.8%
O=C(O)C1=CO[C@@H](O[C@@H]2O[C@H](CO)[C@@H](O)[C@H](O)[C@H]2O)[C@@H]2C(CO)=CC[C@H]12: 93.5%
CCCCCCCCCCCCCC(=O)OC(C)C: 97.2%
c1ccc(CNc2ncnc3[nH]cnc23)cc1: 75.5%
NCCCC[C@H](N)C(=O)O: 97.9%
CCCCCCCCCCCCCCCCCCCCCCCCCCCCC: 100%
OC[C@@H](O)[C@@H](O)[C@H](O)[C@H](O)CO: 89.9%
C=C1CC/C=C(\C)CC[C@@H]2[C@@H]1CC2(C)C: 98.2%
C[C@]1(O)C[C@@H](O)[C@@H]2C(C(=O)O)=CO[C@@H](O[C@@H]3O[C@H](CO)[C@@H](O)[C@H](O)[C@H]3O)[C@@H]21: 97.4%
CC1(C)C(C=C(Cl)Cl)C1C(=O)OCc1cccc(Oc2ccccc2)c1 (centres unmarked): 104%

Sample 4 — cell line: L444P/L444P Gaucher fibroblasts; technique: 4-MUG hydrolysis in lysate; time: 72 h; baseline: vehicle; measurement: enzyme activity
Structure (SMILES): Cc1cccc(/C=N/Nc2cc(N3CCOCC3)nc(OCCc3ccccn3)n2)c1
5 nM: 121% and 110% and 96.9% and 116% and 115% and 117%
0.5 µM, without ISRIB: 160% and 151% and 163% and 146% and 153% and 178%
50 nM: 183% and 171% and 197% and 181% and 166%

Some of these lines once more (sample 3):
CC1(C)C(C=C(Cl)Cl)C1C(=O)OCc1cccc(Oc2ccccc2)c1 (centres unmarked): 104%
O=C1/C(=C/c2ccc(O)c(O)c2)Oc2cc(O)ccc21: 105%
OC[C@@H](O)[C@@H](O)[C@H](O)[C@H](O)CO: 89.9%
